Measurements pooled from the literature.
Compare with care: the assays were run in different laboratories.
Organism: Pseudomonas aeruginosa

SMILES | test | test system | setting | MIC
COc1ccc2c3c(oc2c1CC=C(C)C)-c1cc(CC=C(C)C)c(O)cc1OC3 |  | ATCC 10145 |  | 128 µg/mL
CC[C@@H](C)[C@@H](NC(=O)[C@@H](C)NC(=O)[C@@H](CCCCN)NC(=O)[C@@H](CC(C)C)NC(=O)[C@@H](CC(C)C)NC(=O)[C@H](NC(=O)[C@@H](CCCCN)NC(=O)[C@@H](CC(C)C)NC(=O)[C@@H](CCCCN)NC(=O)[C@@H](CCCCN)NC(=O)[C@@H](CCCCN)NC(=O)[C@@H](CCCCN)NC(=O)[C@@H](C)NC(=O)[C@@H](CCCCN)NC(=O)[C@@H](CO)NC(=O)[C@@H](Cc1ccccc1)NC(=O)[C@H](NC(=O)[C@@H](CCCCN)NC(=O)[C@@H](CC(C)C)NC(=O)[C@@H](Cc1ccccc1)NC(=O)[C@@H](CO)NC(=O)[C@@H](CCCCN)NC(=O)[C@@H](Cc1c[nH]c2ccccc12)NC(=O)[C@@H](CCCCN)NC(C)=O)[C@H](C)O)[C@H](C)O)C(=O)N[C@H](CO)C(=O)N[C@H](CCCCN)C(N)=O | broth microdilution | PAK | 24 h, 37 °C | 2.5 µM
CC(C)C1=CC2=CCC3C(C)(C(=O)OCCC[N+](C)(C)C)CCCC3(C)C2CC1 (stereo not drawn) | microbial growth, broth dilution | ATCC27853 | 16 h | 62.5 µg/mL
COc1ccc2ccc3c(c2c1)C=[N+]1C2CCCCC2[N+]2=Cc4c(OC)cccc4[O][Au-]21[O]3.F[P-](F)(F)(F)(F)F (stereo not drawn) | bacterial growth, broth microdilution | carbapenem-resistant | 24 h | 20 µM
COc1c(NC(=O)c2ccc(NC(=O)c3ccc(NC(=O)[C@H](CC#N)NC(=O)c4ccc(NC(=O)/C(C)=C/c5ccc(O)cc5)cc4)cc3)c(OC)c2O)ccc(C(=O)O)c1O |  | DSM 24600 ESBL 1 |  | 16 µg/mL
CC(C)C[C@H](NC(=O)[C@H](CC(N)=O)NC(=O)[C@H](CCCNC(=N)N)NC(=O)[C@@H](CC(C)C)NC(=O)[C@H](Cc1ccccc1)NC(=O)[C@H](CC(=O)O)NC(=O)[C@H](CCCCN)NC(=O)[C@@H](CC(C)C)NC(=O)[C@H](CCCNC(=N)N)NC(=O)[C@H](CCC(N)=O)NC(=O)[C@@H](NC(=O)[C@@H](CC(C)C)NC(=O)[C@H](CCCNC(=N)N)NC(=O)[C@H](CCCCN)NC(=O)[C@H](Cc1ccc(-c2ccccc2)cc1)NC(=O)CN)C(C)C)C(=O)N[C@H](C(N)=O)C(C)C | broth microdilution | PAO1 |  | 12.5 µM
CC[P+](CC)(CC)[Au-][S]c1ccc(SCC(=O)N[C@H]2[C@H](OC(C)=O)O[C@H](COC(C)=O)[C@@H](OC(C)=O)[C@@H]2OC(C)=O)cc1 |  | NCTC 13437 |  | > 303 µM
COc1ccc2ccc3c(c2c1)C=[N+]1C2CCCCC2[N+]2=Cc4cc(C)ccc4[O][Au-]21[O]3.F[P-](F)(F)(F)(F)F (stereo not drawn) | bacterial growth, broth microdilution | carbapenem-resistant | 24 h | > 20 µM
NCC1OC(OC2C(N)CC(N)C(OC3OC(CO)C(O)C(N)C3O)C2OCCCCCCCCn2cc(CNc3nc(NCc4cn(CCCCCCCCOC5C(OC6OC(CN)C(O)CC6N)C(N)CC(N)C5OC5OC(CO)C(O)C(N)C5O)nn4)nc(NCc4cn(CCCCCCCCOC5C(OC6OC(CN)C(O)CC6N)C(N)CC(N)C5OC5OC(CO)C(O)C(N)C5O)nn4)n3)nn2)C(N)CC1O (stereo not drawn) | microbial growth, broth dilution | PAO1 |  | 128 µg/mL

For quick reference, copied from above:
SMILES | test | test system | setting | MIC
CC[P+](CC)(CC)[Au-][S]c1ccc(SCC(=O)N[C@H]2[C@H](OC(C)=O)O[C@H](COC(C)=O)[C@@H](OC(C)=O)[C@@H]2OC(C)=O)cc1 |  | NCTC 13437 |  | > 303 µM
